Measured values of several laboratories.
Each numbered part is a random draw from the data of one study; scales do not carry over between parts.

Block 1
Target: Histone acetyltransferase KAT6A, winged helix 1, GST fusion (KAT6A, Homo sapiens, UniProt Q92794, residues 1-85)
Technique: protein binding microarray
Molecule type: double-stranded DNA, one strand shown
Sample: in vitro
Concentration: not given
Setting: 8-mer, flanks averaged, mean of 2 arrays, mostly near background
Baseline: not given
Direction: higher = stronger binding
Construct (chain): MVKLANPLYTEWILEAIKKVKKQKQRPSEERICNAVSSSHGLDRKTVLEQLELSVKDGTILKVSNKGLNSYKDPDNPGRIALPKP
| Strand | E-score |
| --- | --- |
| GGGCACCA | -0.0942 |
| AATTAATT | -0.0361 |
| CACCCCAC | -0.188 |
| CCATACCG | 0.176 |
| CCCACCGA | -0.156 |
| AGATCTCC | -0.153 |
| CAAGCTCC | -0.0866 |
| GAATGAGC | -0.101 |
| CAGGCGGC | 0.304 |

Block 2
Target: Sal-like protein 4, full length isoform B (SALL4, Homo sapiens, UniProt Q9UJQ4-2, residues 1-616)
Technique: universal PBM
Molecule type: double-stranded DNA, one strand shown
Sample: in vitro
Concentration: not given
Setting: 8-mer, flanks averaged, mean of replicates
Direction: higher = stronger binding
| Strand | E-score |
| --- | --- |
| AGGAAGAA | 0.0544 |
| GTCTAGTA | 0.154 |
| TAGTGTGA | 0.125 |
| AAGTGGCC | -0.13 |
| GTCCGCCA | -0.127 |
| GCCAAGGA | -0.121 |

Block 3
Target: Interferon regulatory factor 5, full length, phosphomimetic (IRF5, Homo sapiens, UniProt Q13568-2, residues 1-514, K96S/S451D/S453D/S456D/S462D)
Technique: protein-binding microarray
Molecule type: double-stranded DNA, one strand shown
Sample: in vitro
Concentration: 250 nM
Setting: 60-bp whole probe
With: salmon DNA 0.4 mg/ml
Baseline: random background probes
Direction: higher = stronger binding
Shared flanks, not repeated: GCCTAGCAC … GTCTTGATTCGCTTGACGCTGCTG
| Strand | log fluorescence |
| --- | --- |
| TCAACTTTCCAAAACATACTGTGCTAG | 0.843 z-score |
| GACGGATTGCTACTGCTGACGTGCTAG | -0.428 z-score |
| GACGGTATCGACTTTCGGGACGTGCTA | 6.77 z-score |
| TCAGGTTCTCTTTTATTACTGTGCTAG | 0.506 z-score |
| TTAGGTTTCCTACTGCTTCAGTGCTAG | 0.461 z-score |
| TCAGAATTTACTTTCTACGTGTGCTAG | 2.99 z-score |

Mixed results
| Substance | target | assay | system | conditions | scale | endpoint | result |
| --- | --- | --- | --- | --- | --- | --- | --- |
| PhoQ, residues 284 288 289 292 302 303 SVHLDV | PhoP, residues 12 14 15 18 19 LYHSL (Escherichia coli, UniProt P23836) | Sort-seq, refers to: YFP reporter | E. coli | PhoQ-PhoP variant library, with: 10 µM Mg2+ | baseline: high Mg2+ state, higher = stronger signaling | fold induction | 2.48 |
